Results of several laboratories.
Every numbered part comes from another study and shows a few of its results, in no order. Substitutions count along the parent as printed.

Study 1
Target: ABI1, truncated, D143A, DHFR fusion (Arabidopsis thaliana)
Technique: DHFR PCA, deep sequencing
Sample: yeast
Setting: methotrexate growth selection, single substitutions
Together with: (+)-ABA 17 µM
Relative to: wild-type fitted maximum
Reading: higher = stronger binding
Quantity: relative binding score
Starting sequence: PYL1, truncated, DHFR fusion (Arabidopsis thaliana); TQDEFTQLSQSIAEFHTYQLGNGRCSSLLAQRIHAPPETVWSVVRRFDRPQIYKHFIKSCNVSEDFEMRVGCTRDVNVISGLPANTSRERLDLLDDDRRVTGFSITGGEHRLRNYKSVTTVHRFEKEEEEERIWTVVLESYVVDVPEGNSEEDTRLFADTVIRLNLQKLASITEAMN
S27V: -5.53%
L169G: -0.997%
F157D: -2.9%
N77I: 86.9%
T101S: 59%
E14N: 62.2%
G23P: 22.4%
T135K: -13.1%
R155M: 69.2%
N61E: 89.1%
N22Y: 78.4%
F5Y: 74.3%
I133H: 89.1%
N22L: 79.7%

Study 2
Target: CCND1, cyclin fold, Cln2 fusion (human)
Technique: yeast growth competition, sequencing
Sample: yeast
Setting: strong parent motif
Relative to: not given
Reading: higher = stronger binding
Quantity: normalised enrichment score
Starting sequence: CDC42EP1 docking peptide (human); SLVVGKLSFDSSP
F9A: 0.976
S1A: 0.595
G5A: 0.787
S12A: 0.696
V3A: 0.767
S8A: 0.739
L2A: 0.857

Study 3
Target: RNA binding protein fox-1 homolog 2, RRM domain, GST-SBP tag (RBFOX2, Homo sapiens, UniProt O43251-10, residues 100-194)
Technique: RNA Bind-n-Seq
Molecule type: RNA
Sample: in vitro
Tested at: 365 nM
Setting: natural RNA segment, single round, ends assumed
Relative to: no-protein control
Reading: higher = stronger binding
Quantity: RBNS enrichment (R)
All sequences stand within: GGGAGUUCUACAGUCCGACGAUC … UGGAAUUCUCGGGUGCCAA
Residues (chain): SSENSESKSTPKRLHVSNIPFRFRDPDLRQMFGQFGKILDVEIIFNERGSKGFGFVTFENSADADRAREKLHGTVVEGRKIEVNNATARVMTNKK
GUAUGUGGAAUUCUGUCUCUUGGUAAAGCUCAAAGCCAGGCUAGCCUGAGGUGGCGCAGGGCUCUCCUUCCUGUCCCUUCGAUCUCCUUGAGAAUUAAGAGCUGGCAGCU: 0.574
UGUCUUGGCAGGGCUGUCCCCUCUUGCUUCUCCUUGCAUGAGCUGGAGGGCCUGUGUGAGUUACGCCCCUUUCCACACGCCGCUGCCCCAGCAACCCUGUUCACGCUCCA: 3.03
GUUUUCUCCCAGACACACCACACCUACCUUGGGGGAAUGCCGUUGCCUGUUCCACCCCUUUGUUCACUUCGCGUUAACUGCUGUGGUAACUUUUUCAGGAUCUGUGUGAA: 2.17
CUCCCUGGACCAUAGAAGAGAUGUCACUCCUCUCUGGGUUUUAGUGGAGGGAGGGAGGCCUUCCAUUUAGGGCAAGAGCCAGGCAUAAACUCCCUUCCAGAAUUUGUAGC: 0.345
AAACAGCUGCUCCCUCAGCUCAGAGUAGGUUCCAUAUCCUUUUUUUUUGUUUUGUUUUAAUGGCUCAUUUGUAAAAUUGUCCUAAUUUUUCCUAGCUUUCAGCCAUUAGA: 0.714
GUUCAGAUACUGCUGGUAAAGAAACUGGAAAAACUGAAGGAAGGAAUAAAAUAUGUUGGUGGUAUUAACACCUCCAGUAAGAUAAGUCAUUGGUACGGUUUUUCUAAGGG: 0.378
CUGAAAGGCUUUGGCCUUCCUCAGUGAGCCCUGGAGGGGUUGGCCUUCUCUCCUCCCUGCCUAGAUCAGUCCUUCUCCAAAAGGACCUGGGAGCUGGCAGCCUGGGCAGG: 0.315
AGCCUGGCUGAGUGGAGCCUGAGACCUGCACAACAGCUCAUGGUCAUGCAUGAGAGAGAAGUGGCUGGCCACAGCCAGAGGGAACAGUAACAGCCCAGGGGCCUUUAUUU: 0.398
UUUUUUUAAUCUUCCUCUGUUAGCCCACAGGACAUGUUUUGGGGAAAAUGAUACUUGUAAAUCUUCUAUUUAACCAUUUGUAAAAUCUAAAUCAUACCCCACUCCCCACU: 0.48
UGCCCUCCCAGGAUCUAUUCCUGGUGGGCACUGCUGUGUCUCCCCCAGAGUGGCACUCAAAGUACUAUCAAACAAUAAAAGGAAAAUGGUGCUGUUUGAAGUUACAUCCC: 0.331
GGUUAUAGCUUACUGAAGAAAUCUUUCCAGUUAGAAGGAGGUUCUAAUAUUCACAUGUUCUAAUACUUUGUUUAUUGUAAAACAGCUAAAUUUGGAGAUACGUAAAGCCU: 0.552
CUCUUGUUAUGAACUAUUAGAAACUUUAGGCAAAAUCAAAAGUAUUUGCGGCAAAAUAAAGGCCUAUUCUACUCUUAUUUAAAGUGAAACACUGUAUACUUGUUUCUCUC: 0.372

Study 4
Target: Interferon regulatory factor 3, full length, phosphomimetic (IRF3, Homo sapiens, UniProt Q14653, residues 1-427, S386D/S396D/S398D/S402D/T404D/S405D)
Technique: protein-binding microarray
Molecule type: double-stranded DNA, one strand shown
Sample: in vitro
Tested at: 2540 nM top
Setting: 60-bp whole probe
Together with: salmon DNA 0.4 mg/ml
Relative to: random background probes
Reading: higher = stronger binding
Quantity: fitted relative affinity
All sequences stand within: GCCTAGCAC … GTCTTGATTCGCTTGACGCTGCTG
Target sequence (chain): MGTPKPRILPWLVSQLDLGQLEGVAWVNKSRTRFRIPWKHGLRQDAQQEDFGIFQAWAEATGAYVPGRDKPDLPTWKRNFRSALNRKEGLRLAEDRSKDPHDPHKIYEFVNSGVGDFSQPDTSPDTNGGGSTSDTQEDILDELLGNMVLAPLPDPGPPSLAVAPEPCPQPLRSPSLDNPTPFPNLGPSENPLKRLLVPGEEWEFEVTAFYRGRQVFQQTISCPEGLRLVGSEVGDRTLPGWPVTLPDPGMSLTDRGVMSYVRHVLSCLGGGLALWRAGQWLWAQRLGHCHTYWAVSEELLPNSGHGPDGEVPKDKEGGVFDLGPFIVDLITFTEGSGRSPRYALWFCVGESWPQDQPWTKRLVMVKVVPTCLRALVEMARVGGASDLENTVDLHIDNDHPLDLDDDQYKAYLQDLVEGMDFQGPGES
TTAGGACTGCTTTTACTTTAGTGCTAG: 0.316 z-score
TTCATTATTGTTTCCTCTTTGTGCTAG: 2.48 z-score
TTAGATTTCAGACTGGGTTAGTGCTAG: 0.588 z-score
TTAGATTTCAATTCCGATTAGTGCTAG: 2.27 z-score
TTAGGTATCGGTATCGTTTAGTGCTAG: 4.94 z-score
TTAGGTCTCGGTCTCTGTTAGTGCTAG: 1.07 z-score
TCAGATTTCGGGTATCGATTAGTGCTA: 1.9 z-score
GACGATTTCAGTTCCGAGAAGTGCTAG: 3.19 z-score
GACGATTTCAGTCTCGAGAAGTGCTAG: 2.34 z-score
GACGGACTGGACTTTGGGGACGTGCTA: -0.897 z-score
GAAGATTTCGGGTATCGAGACGTGCTA: 1.19 z-score
TCAACTCGCCTTTTTTGACTGTGCTAG: 1.5 z-score
AGTGTTATAATATTATTGCAGTGCTAG: 0.345 z-score
TCAATTTTCAGTATTACACTGTGCTAG: 1.89 z-score
TCATCTCTTTCCTTCTTACTGTGCTAG: 5.9 z-score
CAGTTAATGAAAATTCTAATTGTGCTA: 0.547 z-score
TTAGGTCTAGGTTTCGGTTAGTGCTAG: 3.76 z-score
GATGATTCCAGTTTCGAGACGTGCTAG: 3.17 z-score
TTAGGACTGGGACAGGGTTAGTGCTAG: -0.871 z-score

Study 5
Target: RING finger protein unkempt homolog, zinc fingers 1-6, GST-SBP tag (UNK, Homo sapiens, UniProt Q9C0B0, residues 30-357)
Technique: RNA Bind-n-Seq
Molecule type: RNA
Sample: in vitro
Tested at: not given
Setting: RNA with constant flanks, human and mouse sites, ends assumed
Relative to: input RNA pool
Reading: higher = stronger binding
Quantity: bound/input enrichment
All sequences stand within: GGGAGUUCUACAGUCCGACGAUC … CAACAGAGGAUUGAGCAUCA
Construct (chain): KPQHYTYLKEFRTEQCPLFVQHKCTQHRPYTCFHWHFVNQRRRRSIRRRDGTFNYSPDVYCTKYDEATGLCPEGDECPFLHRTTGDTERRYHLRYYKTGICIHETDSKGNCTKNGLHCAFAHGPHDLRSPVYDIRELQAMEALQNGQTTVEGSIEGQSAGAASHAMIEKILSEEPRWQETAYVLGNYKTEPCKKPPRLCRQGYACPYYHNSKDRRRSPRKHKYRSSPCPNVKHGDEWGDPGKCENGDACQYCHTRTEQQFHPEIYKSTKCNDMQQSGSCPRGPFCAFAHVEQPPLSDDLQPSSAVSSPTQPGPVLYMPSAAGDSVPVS
GGGAGGGAACCGAGUUAUCAAGAUGGGAGGAUUUUUCUUUUCUCUCUGUCUUUAGGAGUAGGGUGGGAUGGGGAGGGAGGCUGGGCAUCAGGGAUCACAUCACUCUUAACGGCUGUUACU: 3.15 ratio
UCAUUUCCUUCAUAUUCUCAGAAGUCAGAAGAUGAUUCAGCUAAAUUUGACAGUAAUGAAGAAGAUUCUGCUUCUGUUUUUUCACCAUCAUUUGGUCUGAAACAGACAGAUAAAGUUCCA: 0.106 ratio
AGGAAAUGCUGCAAUCAUCCGUAUCUUAUCAAAGGUGCUGAGGAGAAAAUACUUGGAGAAUUUAGAGAUACAUACAAUCCAUCUGCCUCUGAUUUUCAUCUGCAAGCAAUGAUCCAAUCU: 0.308 ratio
AAGACAGAACAGUACGUGGAGCUCCACAAAGGCGAGGUGGUGGAUGUCAUGGUCAUUGGACGGCUAUGAUGGUCACCAGCAGGAGAAAGCUUUGAUGCAUGUCCACAUAUCAUUGACUGU: 0.0824 ratio
GGUUGGAUCCGAGGUGCAGCCUCAGAGGGAAGGAUUAAGAGCCGCUAGACUUUUUUUCUUUUCCCUUUUUCUCCUCUCAGUGGCACGGAGUCCGAAUUAAUUGGAUUUCAUUCACUGGGU: 0.145 ratio
UUGCGCCAGAGAACAGAAAACAUAGAUAUAAAAAAAUACUGUGUACAUUAUCUUGAGGAUGUAGGUUCUUUUGAAUACACUCGUAAUACCCUUAAAGAGCUUGAAGCUAAAGCCUAUAAA: 1.31 ratio
GCAGAAUUUGCUGAACUAAAAACACAAAUAGAGAAAAUGAGACUAGAUUACCAACACGAAAUAGAAAAUUUGCAGAAUCAACAAGACUCUGAACGGGCUGCCCAUGCUAAAGAGAUGGAA: 14.5 ratio
GCAGUAAUGACUACCUAGGCAUGAGUCGACACCCACGGGUGUGUGGGGCUGUCAUGUGAGUAGCUCUCAGUUUUCACCUACCACAGGCGUUAUUUGGCAGGACUUGGGUGGCUUGUACAG: 0.213 ratio
GUUCUUAAAUAUGCAGGACUGAAAAAAGAAGACAUUGCCAUGUGGGAAGUAAAUGAAGCAUUCAGUGUGGUUGUGCUAGCCAACAUUAAAAUGCUGGAGAUUGACCCCCAAAAAGUAAAU: 0.225 ratio
UCUUGAAACCUAAACUCUGUGCUUGUAGAAGACUGUAACCUUUUUGUCUUUUUUUUUUUUUUUUUAAACAAACAAAAAAACCAACCUCCAGCUCCAGUGGCUGUGACUGGCCCCAGUGAU: 0.58 ratio
UUCUUUAACAAUUUUACAAUGAAAAUAAAAACUUAAUAAAAGGUGGUAAUGGGCCAGGCACGGUGGCUCACGCAUACAAUCCCAGCACUUUGGGAGACUAAGGCGUGAGGAUCACUUGAG: 0.901 ratio

Study 6
Target: CEBPA, bZIP domain (human)
Technique: DHFR protein complementation
Sample: yeast
Setting: single substitutions, most at no-binding floor
Relative to: wild-type JUN-FOS pair
Reading: higher = stronger binding
Quantity: binding fitness
Starting sequence: JUN, bZIP domain (human); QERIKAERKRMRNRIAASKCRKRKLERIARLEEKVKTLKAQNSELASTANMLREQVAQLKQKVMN; partner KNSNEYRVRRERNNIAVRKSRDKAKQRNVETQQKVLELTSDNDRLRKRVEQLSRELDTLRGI
A40H: -1.51 natural log
L59H: -1.42 natural log
E44S: -1.47 natural log
N42I: -1.58 natural log
A49L: -1.37 natural log
A40V: -1.53 natural log
M51Q: -1.52 natural log
L45G: -1.52 natural log
K36T: -1.47 natural log
L45M: -1.38 natural log
L52R: -1.49 natural log
T37D: -1.46 natural log
K34G: -1.46 natural log
L38P: -1.52 natural log
V35R: -1.4 natural log

Excerpt of the above (study 6):
A40H: -1.51 natural log
L59H: -1.42 natural log
E44S: -1.47 natural log
N42I: -1.58 natural log
A49L: -1.37 natural log
A40V: -1.53 natural log
M51Q: -1.52 natural log
